Measurements collected from several papers.
Every numbered part comes from another study and shows a few of its results, in no order. Changes are numbered by the printed parent chain.

Series 1
Target: Centromere-binding protein 1, full length, His-tagged (CBF1, Saccharomyces cerevisiae, UniProt P17106, residues 1-351)
Chain of UniProt P17106 (whole entry, looked up): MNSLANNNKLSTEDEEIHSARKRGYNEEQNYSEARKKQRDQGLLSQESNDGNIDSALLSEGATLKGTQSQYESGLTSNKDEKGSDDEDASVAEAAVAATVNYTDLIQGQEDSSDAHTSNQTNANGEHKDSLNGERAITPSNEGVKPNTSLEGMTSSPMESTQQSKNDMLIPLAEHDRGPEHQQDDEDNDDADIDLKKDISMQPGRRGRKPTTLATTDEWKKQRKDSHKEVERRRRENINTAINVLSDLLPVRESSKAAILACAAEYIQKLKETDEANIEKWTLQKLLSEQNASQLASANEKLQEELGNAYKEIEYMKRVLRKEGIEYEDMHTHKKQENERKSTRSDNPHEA
Method: competition protein-binding microarray
Molecule type: double-stranded DNA, one strand shown
Medium: in vitro
Concentration: 2 µM
Notes: whole 60-bp probe, lowest competitor level
With: Pho4 competitor, 0.05 µM
Reading: higher = stronger binding
Quantity: fluorescence intensity
AAAAAAAGAAGAGATAACGTGGGTACAGCTAAAAAAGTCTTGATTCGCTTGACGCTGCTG: 106 a.u.
AAAGCGGTAATTTGTGTAGTGGGTGCAGATATCTATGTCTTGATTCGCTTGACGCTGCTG: 75.6 a.u.
GATGGAGGATGCCCCCATGTGCTGATTCTCCCCGTAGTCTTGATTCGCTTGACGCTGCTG: 96 a.u.
AAAGCGGTAATTTGAGACGTGGGTGCAGATATCTATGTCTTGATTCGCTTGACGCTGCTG: 82 a.u.
CGGGAAAGTTAAAGTACCGTGATGGGGACCGCCCTTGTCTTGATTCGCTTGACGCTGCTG: 82.6 a.u.
GCAAGAAGTAACTGGCGTGTGCACAAGAATACTTGTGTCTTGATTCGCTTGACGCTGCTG: 84.1 a.u.
CTTTCCCGATCTTGCGGCGTGGGTGTAGCACATTTGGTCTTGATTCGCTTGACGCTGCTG: 65.2 a.u.
TTCATTGGTGCAGAAAGCGTGCTTTCCGGGTCCCAGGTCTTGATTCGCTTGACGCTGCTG: 68.1 a.u.
CAATCTGCGAATGCATCCGTGCCAGAATGAAACGGCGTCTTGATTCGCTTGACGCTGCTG: 74.3 a.u.
CGTCCTAGTGATTGGGATGTGGGTGCCATGAGGAAGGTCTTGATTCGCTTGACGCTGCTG: 89.2 a.u.
TTGGCCGGGTCTTGTCACGTGAAGAGAGAAATTCGGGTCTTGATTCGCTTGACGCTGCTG: 6500 a.u.
AAAGCGGTAATTTGTCACCGAACTTCACATATCTATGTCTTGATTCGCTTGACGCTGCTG: 81.5 a.u.
GGATTTATAGTACCGTGCGTGCAAACTTAGACTGAAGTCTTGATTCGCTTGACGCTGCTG: 152 a.u.
GATTGCATACCCGCACTCGTGCTTTCATGCTAATTGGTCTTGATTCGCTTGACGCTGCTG: 108 a.u.

Series 2
Target: Histone acetyltransferase KAT6A, winged helix 2, GST fusion (KAT6A, Homo sapiens, UniProt Q92794, residues 85-181)
Method: protein binding microarray
Molecule type: double-stranded DNA, one strand shown
Medium: in vitro
Concentration: not given
Notes: 8-mer, flanks averaged, mean of 2 arrays, mostly near background
Reference: not given
Reading: higher = stronger binding
Quantity: E-score
Construct (chain): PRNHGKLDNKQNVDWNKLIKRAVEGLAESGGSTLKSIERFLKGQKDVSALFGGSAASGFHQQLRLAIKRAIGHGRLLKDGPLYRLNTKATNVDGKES
ATGCAGCG: -0.0456
TAGGACTA: -0.118
AAAACGCA: 0.191
CAGATATG: -0.103
AAGGCAGC: 0.00152
ATCCACTA: -0.166
AACTTCTG: -0.00741
AACAGTCA: -0.173
GCAATTCC: -0.0301
GTCCCTAA: -0.0993
ACAATTCG: 0.0332
CAGCTTCG: 0.0237
CAGTCCGC: 0.135
TAGCCTGA: -0.113
AGGGGACC: 0.0559
CTCAGCGC: 0.012
AGCGCATC: 0.0803

Series 3
Target: Ras GTPase-activating protein-binding protein 1, full length (G3BP1, Homo sapiens, UniProt Q13283)
Chain of UniProt Q13283 (whole entry, looked up): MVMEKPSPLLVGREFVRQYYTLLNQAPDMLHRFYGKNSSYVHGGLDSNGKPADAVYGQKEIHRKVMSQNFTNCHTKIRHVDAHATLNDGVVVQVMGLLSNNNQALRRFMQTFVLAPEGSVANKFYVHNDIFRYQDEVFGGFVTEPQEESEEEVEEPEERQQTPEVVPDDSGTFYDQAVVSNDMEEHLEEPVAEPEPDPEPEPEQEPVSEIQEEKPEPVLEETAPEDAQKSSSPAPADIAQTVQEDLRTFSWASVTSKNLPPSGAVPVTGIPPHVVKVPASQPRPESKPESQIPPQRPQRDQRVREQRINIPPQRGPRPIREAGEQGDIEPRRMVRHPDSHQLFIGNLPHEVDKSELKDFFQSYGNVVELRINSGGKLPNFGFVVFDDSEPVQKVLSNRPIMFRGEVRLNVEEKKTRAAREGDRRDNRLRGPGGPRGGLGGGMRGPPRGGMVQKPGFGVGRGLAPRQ
Method: RNA Bind-n-Seq
Molecule type: RNA
Medium: in vitro
Concentration: 200 nM
Notes: whole 134-nt RNA, ends assumed
With: 150 mM LiCl
Reference: input library
Reading: higher = stronger binding
Quantity: log2 enrichment
Each molecule: 7-deaza-guanosine replaces G
GGGAGUUCUACAGUCCGACGAUCCAAGUCCUGUGCUACACAUCGUAUGUACCGAAUCGGAAAAAGGAGGUUUUUUUGGAAAGUAUUAUGUUACGCCGUUCGGAUCUGCACUUCUGGAAUUCUCGGGUGUCAAGG: -0.916
GGGAGUUCUACAGUCCGACGAUCCUCAAGUCCUGUGCUACACAUCGUAUGUACCGAAUCGGUUGGGUUGGGGUUGGGAAAGUAUUAUGUUACGCCGUUCGGAUCUGCACUUCCUGGAAUUCUCGGGUGUCAAGG: 0.259
GGGAGUUCUACAGUCCGACGAUCUCAAGUCCUGUGCUACACAUCGUAUGUACCGAAUCGGUUUUUGGAGGAAAAAGGAAAGUAUUAUGUUACGCCGUUCGGAUCUGCACUUCCUGGAAUUCUCGGGUGUCAAGG: -0.227
GGGAGUUCUACAGUCCGACGAUCUAACUUUAGAGGAUGAUCUGAUGGAUAUGGCAGUGGACGUGGAUUUGGGGAUGGCUAUAAUGGGUAUGGAGGAGGACCUGGAGGUGGCAAUGGAAUUCUCGGGUGUCAAGG: 0.00761

Series 4
Target: Prothrombin, mature alpha-thrombin (F2, Homo sapiens, UniProt P00734)
Method: aptamer microarray, sandwich
Molecule type: DNA with 2'F-ANA
Medium: in vitro
Concentration: 200 nM
Notes: whole 15-mer aptamer, many near background
With: Cy3 exosite-II aptamer, 400 nM
Reading: higher = stronger binding
Quantity: mean fluorescence intensity
Strand: GGTTGGTGTGGTTGG
2'F-ANA at 1 2 5 6 7 8 10 11 14 15: 50 a.u.
2'F-ANA at 3 5 9 10 14: 49.1 a.u.
2'F-ANA at 1 2 4 5 7 8 10 11 12: 55.8 a.u.
2'F-ANA at 6 10 11 12 13 14: 92.1 a.u.
2'F-ANA at 3 4 5 6 8 9 10 11 12 13 14: 50.9 a.u.
2'F-ANA at 3 5 7 8 10 14 15: 106 a.u.
2'F-ANA at 1 2 3 5 7 9 12 14 15: 46.7 a.u.
2'F-ANA at 2 4 7 8 9 13: 234 a.u.
2'F-ANA at 1 4 5 6 7 8 14 15: 54.9 a.u.
2'F-ANA at 3 5 6 9 10 15: 62.4 a.u.
2'F-ANA at 2 3 5 6 7 9 10 11 12 13 15: 55.7 a.u.
2'F-ANA at 3 4 5 6 7 9 10 11 12: 60.2 a.u.
2'F-ANA at 8 9 11 12 15: 724 a.u.

Series 5
Target: Hepatocyte nuclear factor 3-alpha (Foxa1, Mus musculus, UniProt P35582, residues 1-468, full length assumed)
Method: EMSA with sequencing
Molecule type: double-stranded DNA, one strand shown
Medium: in vitro
Concentration: 10 and 20 nM
Notes: whole designed probe, mean of two concentrations, ends assumed
Reference: negative control set to 0
Reading: higher = stronger binding
Quantity: normalised bound fraction
Target sequence (chain): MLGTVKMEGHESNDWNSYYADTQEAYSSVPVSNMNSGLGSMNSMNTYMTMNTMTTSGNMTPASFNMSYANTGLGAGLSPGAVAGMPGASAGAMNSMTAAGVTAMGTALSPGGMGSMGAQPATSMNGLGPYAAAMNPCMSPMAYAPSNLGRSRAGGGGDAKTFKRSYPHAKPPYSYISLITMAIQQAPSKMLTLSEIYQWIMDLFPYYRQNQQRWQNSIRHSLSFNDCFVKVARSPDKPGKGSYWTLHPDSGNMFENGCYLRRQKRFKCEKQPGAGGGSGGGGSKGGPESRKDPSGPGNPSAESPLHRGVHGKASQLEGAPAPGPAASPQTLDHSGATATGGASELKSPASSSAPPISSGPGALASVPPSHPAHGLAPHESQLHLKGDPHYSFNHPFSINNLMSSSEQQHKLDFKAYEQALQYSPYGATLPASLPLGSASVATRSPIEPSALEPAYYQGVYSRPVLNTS
GTGAGCGGTGCCCATTGATGGGGAACATTTCCCCCAGCCAGTTTTAAATGTGTTATCTGAGCAAGCAAAACCTAAGAATTTCGGTCTTTAAGGACCAGAAATCTGGGACCCAGGCCAAAGTAATCTTAGTGGCAATGTATTGCTAAACCCAAATGCAACATTGCTAACCAGTTGCTCAGATGTTCTCACAAAGTAATATTTTCTAACAGTTAGTGATTCTTTCACTGGGATCGTGGGGAC: -0.0087 ratio
GTGAGCGGTGCCCATTGATGGGGAACTTGTTACAAATAATGAGAAAACATTTAGTGAAACACTTTAAACGTGTTTTTTTAAAAGAATATTTATTGTCTTATTGCTAAGAAAGAGTTCAGTGTAATCTTGTATCAGTTTATCACTTGCTCAGAAGAAATTACTTAAAAATAAATGAGGTTGGTTTAGACGTACTAGTCTATTTTTACTGAAACACAAGCATTTCACTGGGATCGTGGGGAC: -0.00221 ratio
GTGAGCGGTGCCCATTGATGGGGAACAAATTGTATGCATTTCAAGCCCTACAAAACCTGATTCCAGGAGTTGTACCATTTATCTGTGGTCATGAATTTTGTAAACAAAGCTAAGGAAAAGTCAACAGTGATTCAGGGCAGATTCGTGGCTACATGACTTCCTCCTGGGCTGGCCTGGCTGGACTGAGTGTTGAGTGGGGGTGGGTCAACACTACTCCCTTTTCACTGGGATCGTGGGGAC: 0.409 ratio
GTGAGCGGTGCCCATTGATGGGGAACAGGTATTTTGCTGCCACACTGATAGTTCAGTGAATTGCACTTTTGGATCTTGGAGAATGGAGAGAAGCAGCTAGGCAAATAATTGGCAAGAAAAGTAAACAGTTACAGTGCAGCTTTGTTTACCCACTCTGCCTATCTGCGTTTCTGAAATTGGATTCCTTGGCTCTGTGAACTAGTTAGCCTTCCTTTAGAGTTTCACTGGGATCGTGGGGAC: 0.493 ratio

Series 6
Target: ABI1, truncated, D143A, DHFR fusion (Arabidopsis thaliana)
Method: DHFR PCA, deep sequencing
Medium: yeast
Notes: methotrexate growth selection, single substitutions
With: (+)-ABA 2500 µM
Reference: wild-type fitted maximum
Reading: higher = stronger binding
Quantity: relative binding score
Parent: PYL1, truncated, DHFR fusion (Arabidopsis thaliana); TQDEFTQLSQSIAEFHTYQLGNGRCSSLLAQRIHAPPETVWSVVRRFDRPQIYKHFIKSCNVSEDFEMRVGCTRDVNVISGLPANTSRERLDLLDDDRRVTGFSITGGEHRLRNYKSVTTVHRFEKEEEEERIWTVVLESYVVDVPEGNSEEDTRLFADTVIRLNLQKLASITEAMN
I133A: 103%
E139P: -0.448%
K126M: 101%
Y53I: 79.6%
T119N: 65.2%
Y18T: 92.3%
N149H: 69.7%
V145H: 73.9%
S42A: 97.5%
H34A: 93.9%
F103E: 5.06%

Series 7
Target: RING finger protein unkempt homolog, zinc fingers 1-6, GST-SBP tag (UNK, Homo sapiens, UniProt Q9C0B0, residues 30-357)
Method: RNA Bind-n-Seq
Molecule type: RNA
Medium: in vitro
Concentration: not given
Notes: RNA with constant flanks, ends assumed
Reference: input RNA pool
Reading: higher = stronger binding
Quantity: bound/input enrichment
Construct (chain): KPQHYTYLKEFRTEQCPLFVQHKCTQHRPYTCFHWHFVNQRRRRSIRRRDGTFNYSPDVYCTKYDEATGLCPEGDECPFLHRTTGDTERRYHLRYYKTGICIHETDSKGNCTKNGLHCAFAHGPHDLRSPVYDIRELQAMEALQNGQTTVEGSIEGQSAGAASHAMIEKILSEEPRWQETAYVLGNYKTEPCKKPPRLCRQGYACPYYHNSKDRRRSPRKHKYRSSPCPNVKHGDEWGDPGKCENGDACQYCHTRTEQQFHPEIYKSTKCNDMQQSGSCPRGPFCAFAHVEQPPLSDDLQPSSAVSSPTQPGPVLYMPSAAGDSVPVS
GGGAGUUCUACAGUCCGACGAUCCCCAGCACUUUGAUAAAGACUGUGGAUUGGUUGCUGGUGUUUUCCUUGUUCUUUUUAAUCCGUUUCAUUAUGUAUGCUACCAUCCGCACUGAGAGUAUUCGGUGGCUGAUUCCAGGACAACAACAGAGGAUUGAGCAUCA: 0.231 ratio
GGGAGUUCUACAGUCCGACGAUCUCAUCUUCUGUUGCUUUUAAAUUAUCUGACAAUGGAGACUCUAUUCCUUAUACCAUCAACCGGUAUUUGAGAGACUACCAAAGAGAAGGAACCCGGUUUCUUUAUGGACACUACAUCCAUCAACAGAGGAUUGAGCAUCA: 0.249 ratio
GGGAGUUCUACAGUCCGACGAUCGCAGGUGUCAAUAGUGAUAGCCCUAAUAACUGUUCAGGAAAAAAGGUAGAACCUUCAGCUUCCGCUUGCCGAUCACAGAAUUUAAAGGAAUCUUCAGUAAAAGUAGAUAAUGAAAGCUGUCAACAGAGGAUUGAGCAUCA: 0.594 ratio
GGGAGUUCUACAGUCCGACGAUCUUCGGUGUUAUCCGGUCACUCAUGGCCUUUAGGCUGACAGGUGGCACCAAAGACUACAUUGCCGUUGGCAGUGACUCUGGUCGAAUUGUUAUUUUGGAAUACCAGCCAUCUAAGAAUAUGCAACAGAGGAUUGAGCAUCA: 0.136 ratio
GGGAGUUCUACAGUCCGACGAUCAACACCAACACAGCAAUCGAGCUGAAACUAGUUCGUUUUCCUGAAGAUCUUGAGAAUGACAUCCGAACUUUCUUUCCUGAAUAUACCCAUCAGCUCUUUGGGGAUGAUGAAACUGCUUUCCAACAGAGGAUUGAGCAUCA: 0.109 ratio
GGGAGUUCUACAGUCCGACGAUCGCUAUGGACACAGAGUUCCCAGGUGUUGUUGUACGGCCGAUCGGUGAAUUUCGAAGCUCCACCGAUUACCAGUAUCAGCUUCUGCGGUGCAAUGUUGAUCUUCUUAAAAUCAUCCAGCUGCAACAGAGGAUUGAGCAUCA: 0.0561 ratio

Some of these lines once more (series 2):
AACAGTCA: -0.173
GCAATTCC: -0.0301
GTCCCTAA: -0.0993
ACAATTCG: 0.0332
CAGCTTCG: 0.0237
CAGTCCGC: 0.135
TAGCCTGA: -0.113
AGGGGACC: 0.0559
CTCAGCGC: 0.012
